Experimental data pooled from the literature.
Each line is one published result; not all experiments were run side by side. Numbers after ± are the reported error.
GLP1R: Glucagon-like peptide 1 receptor (GLP1R, Homo sapiens, UniProt P43220)
Taar1 Y287N: Trace amine-associated receptor 1 (Taar1, Mus musculus, UniProt Q923Y8, Y287N)
GRM4: Metabotropic glutamate receptor 4 (GRM4, Homo sapiens, UniProt Q14833)
LDHA: L-lactate dehydrogenase A chain (LDHA, Homo sapiens, UniProt P00338)
FPR1: fMet-Leu-Phe receptor (FPR1, Homo sapiens, UniProt P21462)
Lysophospholipase-like protein 1: Lysophospholipase-like protein 1 (Mus musculus, UniProt Q3UFF7)
KCNT1: Potassium channel subfamily T member 1 (KCNT1, Homo sapiens, UniProt Q5JUK3)
ALDH1A3: Retinaldehyde dehydrogenase 3 (ALDH1A3, Homo sapiens, UniProt P47895)
Melanocortin receptor 3: Melanocortin receptor 3 (Mus musculus, UniProt P33033)
FPR2: N-formyl peptide receptor 2 (FPR2, Homo sapiens, UniProt P25090)

Sequences of proteins named here, by UniProt entry; tags and fusion partners are left off. A line that says so, or that is headed by a name, gives the form on record, which may keep a tag or linker. Residues count along the entry.
UniProt P43220, whole entry, looked up: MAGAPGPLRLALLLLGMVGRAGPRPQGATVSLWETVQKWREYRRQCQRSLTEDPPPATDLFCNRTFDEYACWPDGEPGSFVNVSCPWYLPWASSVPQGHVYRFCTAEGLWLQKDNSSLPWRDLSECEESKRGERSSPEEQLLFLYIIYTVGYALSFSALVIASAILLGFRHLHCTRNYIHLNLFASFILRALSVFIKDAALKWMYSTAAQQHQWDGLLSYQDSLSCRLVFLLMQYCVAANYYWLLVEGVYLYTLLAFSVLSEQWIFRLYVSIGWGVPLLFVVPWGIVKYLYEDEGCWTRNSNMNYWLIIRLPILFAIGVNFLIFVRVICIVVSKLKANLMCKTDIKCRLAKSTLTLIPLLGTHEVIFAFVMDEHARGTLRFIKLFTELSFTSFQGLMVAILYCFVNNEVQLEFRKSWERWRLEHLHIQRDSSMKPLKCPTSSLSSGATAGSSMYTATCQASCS
UniProt P43220, 24-463 limits assumed: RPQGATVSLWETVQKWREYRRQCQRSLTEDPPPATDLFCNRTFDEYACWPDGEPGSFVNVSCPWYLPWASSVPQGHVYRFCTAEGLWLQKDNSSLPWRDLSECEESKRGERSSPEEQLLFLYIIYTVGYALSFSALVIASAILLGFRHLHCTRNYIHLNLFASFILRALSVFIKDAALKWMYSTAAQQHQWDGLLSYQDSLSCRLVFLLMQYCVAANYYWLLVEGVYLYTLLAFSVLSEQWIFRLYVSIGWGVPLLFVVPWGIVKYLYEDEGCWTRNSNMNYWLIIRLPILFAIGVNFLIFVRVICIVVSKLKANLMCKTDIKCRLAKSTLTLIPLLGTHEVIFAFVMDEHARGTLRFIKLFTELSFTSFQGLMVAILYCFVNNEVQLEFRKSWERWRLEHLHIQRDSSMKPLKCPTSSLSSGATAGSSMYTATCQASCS
UniProt Q14833, 33-912 limits assumed: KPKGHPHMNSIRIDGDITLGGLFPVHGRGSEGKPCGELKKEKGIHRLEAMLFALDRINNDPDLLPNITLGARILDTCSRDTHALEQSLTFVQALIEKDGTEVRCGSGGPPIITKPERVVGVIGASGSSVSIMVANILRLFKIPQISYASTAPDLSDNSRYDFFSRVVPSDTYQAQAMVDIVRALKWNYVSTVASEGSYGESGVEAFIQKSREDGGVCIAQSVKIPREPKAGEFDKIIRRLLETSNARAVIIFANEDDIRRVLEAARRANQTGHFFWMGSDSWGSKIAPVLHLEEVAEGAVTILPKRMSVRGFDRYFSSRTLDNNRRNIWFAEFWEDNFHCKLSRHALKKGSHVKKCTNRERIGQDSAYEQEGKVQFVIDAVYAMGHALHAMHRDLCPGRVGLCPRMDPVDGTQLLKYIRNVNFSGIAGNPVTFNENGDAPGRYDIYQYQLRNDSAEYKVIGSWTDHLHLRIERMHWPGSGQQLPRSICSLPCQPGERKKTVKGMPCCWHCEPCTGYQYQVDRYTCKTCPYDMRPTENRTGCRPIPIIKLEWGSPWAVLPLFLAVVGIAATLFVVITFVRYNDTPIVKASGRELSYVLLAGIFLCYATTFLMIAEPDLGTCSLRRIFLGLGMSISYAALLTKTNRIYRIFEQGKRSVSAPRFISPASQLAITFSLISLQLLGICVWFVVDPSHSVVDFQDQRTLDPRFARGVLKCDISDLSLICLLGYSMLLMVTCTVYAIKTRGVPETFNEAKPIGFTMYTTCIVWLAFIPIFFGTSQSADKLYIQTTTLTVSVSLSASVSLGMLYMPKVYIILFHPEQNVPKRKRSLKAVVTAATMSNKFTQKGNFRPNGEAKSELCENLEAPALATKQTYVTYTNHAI
UniProt Q3UFF7, whole entry: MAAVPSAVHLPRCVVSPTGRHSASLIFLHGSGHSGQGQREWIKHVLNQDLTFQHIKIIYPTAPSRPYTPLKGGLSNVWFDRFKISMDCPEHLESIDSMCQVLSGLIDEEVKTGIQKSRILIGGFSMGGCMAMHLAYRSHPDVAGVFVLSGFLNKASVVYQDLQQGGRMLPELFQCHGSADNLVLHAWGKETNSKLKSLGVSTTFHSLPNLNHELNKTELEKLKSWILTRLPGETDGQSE
UniProt P31423, 33-912 limits assumed: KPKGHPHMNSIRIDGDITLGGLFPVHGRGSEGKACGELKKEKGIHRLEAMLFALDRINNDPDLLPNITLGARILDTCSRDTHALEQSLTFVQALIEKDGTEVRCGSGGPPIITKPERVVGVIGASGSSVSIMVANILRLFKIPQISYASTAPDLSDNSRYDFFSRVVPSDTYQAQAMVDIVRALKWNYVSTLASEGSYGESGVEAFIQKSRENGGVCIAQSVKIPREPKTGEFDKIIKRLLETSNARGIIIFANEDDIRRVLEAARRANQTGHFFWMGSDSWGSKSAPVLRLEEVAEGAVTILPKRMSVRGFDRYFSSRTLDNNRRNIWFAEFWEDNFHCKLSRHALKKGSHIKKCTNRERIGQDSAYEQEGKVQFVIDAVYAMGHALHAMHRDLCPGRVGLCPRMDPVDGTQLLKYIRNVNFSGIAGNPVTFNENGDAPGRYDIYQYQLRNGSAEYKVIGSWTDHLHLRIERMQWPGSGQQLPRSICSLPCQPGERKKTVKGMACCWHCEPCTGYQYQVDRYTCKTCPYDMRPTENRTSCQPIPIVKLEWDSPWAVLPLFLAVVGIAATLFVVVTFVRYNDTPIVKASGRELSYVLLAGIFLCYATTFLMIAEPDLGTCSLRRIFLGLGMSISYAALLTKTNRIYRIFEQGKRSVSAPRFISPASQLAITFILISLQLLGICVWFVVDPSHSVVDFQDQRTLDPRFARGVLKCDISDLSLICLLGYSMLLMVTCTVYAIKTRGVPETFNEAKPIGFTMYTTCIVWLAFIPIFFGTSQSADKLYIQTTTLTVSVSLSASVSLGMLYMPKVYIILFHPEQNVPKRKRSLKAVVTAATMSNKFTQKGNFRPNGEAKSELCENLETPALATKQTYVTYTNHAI
UniProt Q9JJJ7, whole entry: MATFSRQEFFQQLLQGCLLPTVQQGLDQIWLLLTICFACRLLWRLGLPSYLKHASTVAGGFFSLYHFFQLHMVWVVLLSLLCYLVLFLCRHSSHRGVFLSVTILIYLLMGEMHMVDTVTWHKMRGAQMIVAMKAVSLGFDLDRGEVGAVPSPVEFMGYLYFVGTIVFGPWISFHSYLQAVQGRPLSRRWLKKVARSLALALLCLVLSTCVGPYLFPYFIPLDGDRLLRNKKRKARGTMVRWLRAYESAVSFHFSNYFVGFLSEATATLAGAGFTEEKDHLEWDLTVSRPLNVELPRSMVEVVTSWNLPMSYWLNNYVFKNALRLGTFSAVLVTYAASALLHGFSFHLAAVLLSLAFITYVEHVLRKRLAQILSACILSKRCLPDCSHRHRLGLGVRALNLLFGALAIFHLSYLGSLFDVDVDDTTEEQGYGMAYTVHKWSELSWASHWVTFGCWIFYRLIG
UniProt Q9UBN7, whole entry: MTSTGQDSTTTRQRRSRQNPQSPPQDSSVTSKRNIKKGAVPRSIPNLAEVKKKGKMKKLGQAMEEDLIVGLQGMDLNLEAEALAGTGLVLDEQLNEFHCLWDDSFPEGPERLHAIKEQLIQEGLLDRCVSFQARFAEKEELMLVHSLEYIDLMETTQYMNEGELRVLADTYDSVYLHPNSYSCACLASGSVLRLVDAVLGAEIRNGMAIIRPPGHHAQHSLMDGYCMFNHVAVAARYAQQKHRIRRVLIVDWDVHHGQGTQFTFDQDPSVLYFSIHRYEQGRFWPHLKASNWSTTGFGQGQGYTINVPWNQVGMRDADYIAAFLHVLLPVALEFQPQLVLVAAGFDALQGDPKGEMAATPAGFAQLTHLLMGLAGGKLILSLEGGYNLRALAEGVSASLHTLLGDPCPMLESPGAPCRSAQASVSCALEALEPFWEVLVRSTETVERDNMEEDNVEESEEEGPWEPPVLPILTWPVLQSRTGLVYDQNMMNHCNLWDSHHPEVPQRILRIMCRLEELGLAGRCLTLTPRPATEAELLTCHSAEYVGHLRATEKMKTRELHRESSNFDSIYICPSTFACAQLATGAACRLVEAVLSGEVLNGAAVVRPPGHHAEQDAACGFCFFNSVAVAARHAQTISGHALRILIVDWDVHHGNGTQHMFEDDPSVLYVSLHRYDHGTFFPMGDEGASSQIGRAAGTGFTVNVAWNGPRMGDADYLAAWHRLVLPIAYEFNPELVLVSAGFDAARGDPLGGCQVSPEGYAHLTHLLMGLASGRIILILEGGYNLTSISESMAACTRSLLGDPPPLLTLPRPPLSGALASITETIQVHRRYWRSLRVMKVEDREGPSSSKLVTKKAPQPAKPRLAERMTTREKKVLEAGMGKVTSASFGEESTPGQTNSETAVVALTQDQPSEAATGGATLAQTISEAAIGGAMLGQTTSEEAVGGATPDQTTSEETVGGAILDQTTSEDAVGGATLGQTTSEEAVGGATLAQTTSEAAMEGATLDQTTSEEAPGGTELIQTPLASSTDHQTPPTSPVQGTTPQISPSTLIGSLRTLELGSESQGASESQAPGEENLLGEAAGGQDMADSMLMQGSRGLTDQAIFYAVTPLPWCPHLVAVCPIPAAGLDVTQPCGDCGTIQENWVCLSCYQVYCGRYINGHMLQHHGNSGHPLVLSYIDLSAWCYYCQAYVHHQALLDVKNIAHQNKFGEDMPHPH
UniProt P62508, whole entry: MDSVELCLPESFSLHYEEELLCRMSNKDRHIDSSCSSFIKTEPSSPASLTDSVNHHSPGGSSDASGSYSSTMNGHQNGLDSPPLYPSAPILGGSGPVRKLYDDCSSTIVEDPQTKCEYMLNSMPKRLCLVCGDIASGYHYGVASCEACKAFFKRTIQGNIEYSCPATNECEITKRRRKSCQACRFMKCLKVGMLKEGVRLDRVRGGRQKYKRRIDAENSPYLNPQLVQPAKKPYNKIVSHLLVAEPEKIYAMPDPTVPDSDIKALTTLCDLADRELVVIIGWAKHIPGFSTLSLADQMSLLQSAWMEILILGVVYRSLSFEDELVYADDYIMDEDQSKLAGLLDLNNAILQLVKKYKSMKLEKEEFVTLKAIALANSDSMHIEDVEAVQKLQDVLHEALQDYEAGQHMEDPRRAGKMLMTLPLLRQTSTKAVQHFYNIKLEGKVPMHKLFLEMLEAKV
UniProt P13569, with tags, fused parts or gaps DEL508-508: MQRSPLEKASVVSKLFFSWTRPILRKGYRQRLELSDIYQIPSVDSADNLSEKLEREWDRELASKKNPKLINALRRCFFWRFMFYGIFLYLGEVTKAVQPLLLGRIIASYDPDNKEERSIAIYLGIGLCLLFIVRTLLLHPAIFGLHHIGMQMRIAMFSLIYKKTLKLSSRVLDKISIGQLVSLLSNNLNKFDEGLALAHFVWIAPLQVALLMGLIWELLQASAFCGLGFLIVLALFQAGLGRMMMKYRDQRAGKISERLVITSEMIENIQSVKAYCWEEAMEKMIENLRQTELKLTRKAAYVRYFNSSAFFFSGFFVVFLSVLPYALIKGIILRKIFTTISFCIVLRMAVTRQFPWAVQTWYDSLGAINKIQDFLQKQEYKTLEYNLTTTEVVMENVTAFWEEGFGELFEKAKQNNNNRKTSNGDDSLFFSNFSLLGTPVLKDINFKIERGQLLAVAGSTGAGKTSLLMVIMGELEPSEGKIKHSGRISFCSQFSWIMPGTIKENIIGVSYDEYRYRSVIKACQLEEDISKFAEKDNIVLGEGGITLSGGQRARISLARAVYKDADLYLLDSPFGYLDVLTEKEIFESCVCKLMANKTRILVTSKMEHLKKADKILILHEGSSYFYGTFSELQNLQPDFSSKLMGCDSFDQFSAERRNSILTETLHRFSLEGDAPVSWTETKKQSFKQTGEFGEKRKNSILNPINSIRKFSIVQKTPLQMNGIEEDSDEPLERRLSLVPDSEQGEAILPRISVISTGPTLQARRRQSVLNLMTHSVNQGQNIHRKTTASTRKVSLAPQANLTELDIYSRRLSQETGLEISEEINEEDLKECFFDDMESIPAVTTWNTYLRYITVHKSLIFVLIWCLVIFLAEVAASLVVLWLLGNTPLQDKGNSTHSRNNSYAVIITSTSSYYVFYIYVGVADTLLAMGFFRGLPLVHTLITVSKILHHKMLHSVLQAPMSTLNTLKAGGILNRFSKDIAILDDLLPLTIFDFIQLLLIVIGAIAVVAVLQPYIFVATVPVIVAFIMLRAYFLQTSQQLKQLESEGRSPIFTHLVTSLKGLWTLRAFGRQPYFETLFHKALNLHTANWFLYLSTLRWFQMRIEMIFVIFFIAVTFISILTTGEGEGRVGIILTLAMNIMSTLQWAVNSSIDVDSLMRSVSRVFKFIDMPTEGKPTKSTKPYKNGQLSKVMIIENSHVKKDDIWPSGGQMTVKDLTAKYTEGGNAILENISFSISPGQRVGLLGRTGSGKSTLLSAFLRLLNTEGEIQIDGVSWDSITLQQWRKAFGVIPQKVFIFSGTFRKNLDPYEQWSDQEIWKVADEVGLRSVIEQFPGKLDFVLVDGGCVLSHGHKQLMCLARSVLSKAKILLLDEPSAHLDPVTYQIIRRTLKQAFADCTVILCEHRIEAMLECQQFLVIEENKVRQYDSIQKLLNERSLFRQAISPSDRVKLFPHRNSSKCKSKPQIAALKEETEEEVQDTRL

| SMILES | target | test | system | conditions | EC50 |
| --- | --- | --- | --- | --- | --- |
| Cc1[nH]c2cc(Cl)cc(Cl)c2c1CCn1cc(CNC(N)=O)nn1 | GLP1R | cAMP accumulation, positive allosteric modulator, HTRF | CHO-K1 expressing GLP1R | crude reaction product, with: GLP-1(9-36) at EC20 | 760 nM |
| CSc1cc(NC(=O)c2ccccn2)ccc1Cl | Metabotropic glutamate receptor 6 (Homo sapiens, UniProt O15303) | agonist |  |  | > 30000 nM |
| Nc1nc(SCc2ccc(Cl)cc2)nn1S(=O)(=O)c1cccc([N+](=O)[O-])c1 | Lysophospholipase-like protein 1 (LYPLAL1, Homo sapiens, UniProt Q5VWZ2) | enzyme activity, activator, gel-based ABPP, FP-rhodamine | purified protein |  | 110 nM |
| Cc1nc(-c2ccc(OCC(C)C)c(C#N)c2)sc1C(N)=O | Grm2/Grm4 (Rattus norvegicus, UniProt P31421+P31423) | thallium flux, positive allosteric modulator | HEK293 GIRK | with: glutamate EC20 | 2200 nM |
| Cc1[nH]c2cc(Cl)cc(Cl)c2c1CCn1cc(C2(O)COC2)nn1 | GLP1R | cAMP accumulation, positive allosteric modulator, HTRF | CHO-K1 expressing GLP1R | purified compound, with: GLP-1(9-36) at EC20 | 668 ± 64 nM |
| NCC(c1ccccc1)c1cccc(Oc2ccccc2)c1 (stereo not shown) | Taar1 Y287N | cAMP, agonist |  | mouse receptor mutant | 102 ± 21 nM |
| O=C(Nc1ccc(F)c(F)c1)C12CC1/C(=N\O)c1ccccc1O2 (stereo not shown) | GRM4 | calcium mobilization, positive allosteric modulator | CHO hmGluR4/Gqi5 | with: glutamate EC20 | > 5000 nM |
| Cc1cnc(C#Cc2cccc(-c3nn(-c4nc(C(=O)O)cs4)c(CCC4CC4)c3Cc3ccc(S(N)(=O)=O)c(F)c3)c2)s1 | LDHA | thermal stabilisation, CETSA | HEK293 | 3.5 min, 71 °C | 10 nM |
| COc1cccc(Cc2cc(C)nn(C(C)(C)C(=O)Nc3ccc(Br)cc3)c2=O)c1 | FPR1 | β-arrestin recruitment, agonist | CHO-K1 expressing FPR1 |  | 20100 nM |
| COC(=O)[C@@]1(C)C=C(C(=O)OCc2cccc(C(=O)Nc3ccc(Nc4nccc(-c5cccnc5)n4)c(C)c3)c2)C(=O)CC1 | Mitogen-activated protein kinase 8 (MAPK8, Homo sapiens, UniProt P45983) | JNK1 binding, NanoBRET | HEK293 cells | 2 h, with: tracer K-5 | 650 ± 180 nM |
| NS(=O)(=O)c1ccc(Cc2c(-c3ccc(F)c(C#CC4CCCC4)c3)nn(-c3nc(C(=O)O)cs3)c2CC2CC2)cc1F | LDHA | thermal stabilisation, CETSA | HEK293 | 3.5 min, 71 °C | 40 nM |
| NCCCCNC(=O)[C@H](Cc1ccc(Cl)cc1)NC(=O)N1CCc2ccccc2C1 | Melanocortin receptor 4 (Mus musculus, UniProt P56450) | reporter gene, agonist, β-galactosidase reporter | HEK293 stably expressing Melanocortin receptor 4 |  | > 100000 nM |
| Cn1c(=O)oc2ccc(S(=O)(=O)n3nc(SCc4ccc(Cl)cc4)nc3N)cc21 | Lysophospholipase-like protein 1 | enzyme activity, activator, gel-based ABPP, FP-rhodamine | purified protein |  | 380 nM |
| O=C(Cn1nnc(-c2cccnc2)c1-c1ccccc1)Nc1ccc(-c2ccccc2)cn1 | Protein-serine O-palmitoleoyltransferase porcupine (Mus musculus, UniProt Q9JJJ7) | Wnt signalling reporter, inhibitor | L-Wnt-STF |  | 0.6 nM |
| CCCC(O)c1cn(CCc2c(C)[nH]c3cc(Cl)cc(Cl)c23)nn1 (stereo not shown) | GLP1R | cAMP accumulation, positive allosteric modulator, HTRF | CHO-K1 expressing GLP1R | purified compound, with: GLP-1(9-36) at EC20 | 536 ± 132 nM |
| COc1ccccc1-c1cc(C(F)(F)F)nc(S(=O)(=O)CCCC(=O)O)n1 | GLP1R | cAMP accumulation, agonist | HEK293T overexpressing target | no peptide ligand | 39000 ± 8300 nM |
| O=C(CCCCCONC(=O)c1cc2ccccc2[nH]1)NO | Protein deacetylase HDAC6 (HDAC6, Homo sapiens, UniProt Q9UBN7) | enzyme activity |  |  | 1 to 100 nM |
| O=S(=O)(c1cccc(C(F)(F)F)c1)N1CCC(Cn2cnc3cccc(C(F)(F)F)c32)CC1 | KCNT1 | thallium flux, activator | HEK293 expressing KCNT1 |  | 6600 nM |
| Nc1nc(NCCc2ccc(Cl)cc2)nn1S(=O)(=O)c1cccc2ccccc12 | Lysophospholipase-like protein 1 | enzyme activity, activator, gel-based ABPP, FP-rhodamine | purified protein |  | 2100 nM |
| NCC(c1ccc(O)cc1)c1ccc(Oc2ccc(O)cc2)c(I)c1 (stereo not shown) | Trace amine-associated receptor 1 (Rattus norvegicus, UniProt Q923Y9) | cAMP production, agonist | HEK293 |  | 4 ± 1 nM |
| COC(=O)c1ccc(NC(=O)CSc2nc3ccc(OC)cc3[nH]2)cc1 | FPR1 | calcium mobilization, agonist | HL-60 transfected with FPR1 |  | 1500 nM |
| CCn1nc(C)cc1C(=O)Nc1nc2cc(C(N)=O)cc(OC)c2n1CCCCn1c(NC(=O)c2cc(C)nn2CC)nc2cc(C(N)=O)cc(OCCCN3CCN(C(=O)CCCCCN4C(=O)C=CC4=O)CC3)c21 | Stimulator of interferon genes protein (Sting1, Mus musculus, UniProt Q3TBT3) | IFN-β secretion, agonist, ELISA | mouse BMDCs | carrier-free cysteine-blocked click | 1620 nM |
| CCCn1c(NCc2cccc(Cl)c2O)nc2ccccc21 | ALDH1A3 | enzyme activity, inhibitor, NADH absorbance 340 nm |  | pH 7.5, 25 °C, 200 µM NAD+, with: 100 µM propionaldehyde | 79 ± 30 nM |

| SMILES | target | test | system | conditions | EC50 |
| --- | --- | --- | --- | --- | --- |
| O=C(Nc1cccnc1)C12CC1/C(=N\O)c1ccccc1O2 (stereo not shown) | GRM4 | calcium mobilization, positive allosteric modulator | CHO hmGluR4/Gqi5 | with: glutamate EC20 | > 5000 nM |
| NCC(c1ccc(O)cc1)c1ccc(Oc2ccccc2)cc1 (stereo not shown) | Taar1 Y287N | cAMP, agonist |  | mouse receptor mutant | 176 ± 32 nM |
| COc1cccc2c1ncn2CC1CCN(S(=O)(=O)c2cccc(C(F)(F)F)c2)CC1 | KCNT1 | thallium flux, activator | HEK293 expressing KCNT1 |  | 1300 nM |
| NCCCCNC(=O)[C@H](Cc1ccc(I)cc1)NC(=O)N1CCc2ccccc2C1 | Melanocortin receptor 3 | reporter gene, agonist, β-galactosidase reporter | HEK293 stably expressing Melanocortin receptor 3 |  | 37000 ± 19000 nM |
| Cc1c(=O)n(C)c(Nc2ccc(I)cc2F)c2c(=O)n(C3CC3)c(=O)n(-c3cccc(NC(=O)CCOCCOCCNC(=O)CCC4=[N+]5C(=Cc6ccc(-c7ccc[nH]7)n6[B-]5(F)F)C=C4)c3)c12 | Dual specificity mitogen-activated protein kinase kinase 1, with CRAF (MAP2K1, Homo sapiens, UniProt Q02750) | binding, NanoBRET | HEK-293T | MEK1-NanoLuc with CRAF | 193 ± 28 nM |
| COc1ccc(NC(=O)CN2CCCN(S(=O)(=O)c3ccco3)CC2)c(OC)c1 | GRM4 | calcium mobilization, positive allosteric modulator | CHO cells with Gqi5 | with: glutamate EC20 | 3300 ± 300 nM |
| Cc1[nH]c2cc(Cl)cc(Cl)c2c1CCn1cc(CCCC#N)nn1 | GLP1R | cAMP accumulation, positive allosteric modulator, HTRF | CHO-K1 expressing GLP1R | purified compound, with: GLP-1(9-36) at EC20 | 627 ± 233 nM |
| Nc1nc(CCCc2ccc(Cl)cc2)nn1S(=O)(=O)c1ccc2ccccc2c1 | Lysophospholipase-like protein 1 | enzyme activity, activator, gel-based ABPP, FP-rhodamine | purified protein |  | > 20000 nM |
| COc1ccc(NC(=O)CN2CCCN(S(=O)(=O)c3ccc(OC(F)(F)F)cc3)CC2)c(OC)c1 | GRM4 | calcium mobilization, positive allosteric modulator | CHO cells with Gqi5 | with: glutamate EC20 | > 10000 nM |
| COc1ccc(NC(=O)N[C@H](Cc2ccc(C#N)cc2)C(=O)NCC2(c3cccc(O)c3)CC2)cc1 | FPR2 | calcium mobilization, agonist | FPR2-transfected HL-60 |  | 2600 ± 140 nM |
| CC(C)(Cn1cc(-c2ccc(CO)cc2)nn1)c1c[nH]c2ccccc12 | GLP1R | cAMP accumulation, positive allosteric modulator, HTRF | CHO-K1 expressing GLP1R | crude reaction product, with: GLP-1(9-36) at EC20 | 970 nM |
| COc1ccc(C2(CNC(=O)[C@H](Cc3c[nH]c4ccccc34)NC(=O)Nc3ccc([N+](=O)[O-])cc3)CCCCC2)cc1 | FPR2 | Ca2+ mobilization, agonist | HL-60 transfected with FPR2 |  | 10400 ± 3500 nM |
| NCCCCNC(=O)[C@H](Cc1c[nH]cn1)NC(=O)N1CCc2ccccc2C1 | Melanocortin receptor 3 | reporter gene, agonist, β-galactosidase reporter | HEK293 stably expressing Melanocortin receptor 3 |  | > 100000 nM |
| Cc1ccc(S(=O)(=O)OCCc2cn(CCc3c(C)[nH]c4cc(Cl)cc(Cl)c34)nn2)cc1 | GLP1R | cAMP accumulation, positive allosteric modulator, HTRF | CHO-K1 expressing GLP1R | crude reaction product, with: GLP-1(9-36) at EC20 | 1060 nM |
| Cn1cnc(C[C@H](NC(=O)[C@@H]2CCC(=O)N2)C(=O)N2CCC[C@H]2C(N)=O)c1 [isotope labelled] | Thyrotropin-releasing hormone receptor (Mus musculus, UniProt P21761) | reporter gene, agonist, CREB luciferase reporter | HEK293 cells | 6 h, 37 °C | 2.1 nM |
| Nc1nc(SCc2ccc(Cl)cc2)nn1S(=O)(=O)c1cccc2c1CCCC2 | Lysophospholipase-like protein 1 | enzyme activity, activator, gel-based ABPP, FP-rhodamine | purified protein |  | 1300 nM |
| O=C(NN=Cc1ccccc1)c1ccc(Cl)cc1 | Estrogen-related receptor gamma (ESRRG, Homo sapiens, UniProt P62508) | reporter gene, agonist, ERRE luciferase reporter | HEK293 transfected |  | 790 nM |
| Nc1nc(SCc2ccc(Cl)cc2)nn1S(=O)(=O)c1ccc2[nH]cnc2c1 | Lysophospholipase-like protein 1 | enzyme activity, activator, gel-based ABPP, FP-rhodamine | purified protein |  | 380 nM |
| Cc1[nH]c2cc(Cl)cc(Cl)c2c1CCn1cc(CCCCO)nn1 | GLP1R | cAMP accumulation, positive allosteric modulator, HTRF | CHO-K1 expressing GLP1R | crude reaction product, with: GLP-1(9-36) at EC20 | 658 nM |
| COc1ccc(NC(=O)CN2CCCN(S(=O)(=O)c3ccsc3)CC2)c(OC)c1 | GRM4 | calcium mobilization, positive allosteric modulator | CHO cells with Gqi5 | with: glutamate EC20 | > 10000 nM |
| Oc1c(Cl)cccc1CNc1nc2ccccc2n1CC1CC1 | ALDH1A3 | enzyme activity, inhibitor, NADH absorbance 340 nm |  | pH 7.5, 25 °C, 200 µM NAD+, with: 100 µM propionaldehyde | 250 ± 10 nM |
| CN(C(=O)Cc1c[nH]c2ccccc12)[C@H](C(=O)Nc1ccc(F)cc1)c1ccccc1 | Cystic fibrosis transmembrane conductance regulator (CFTR, Homo sapiens, UniProt P13569, del508-508) | potentiator, YFP halide quenching | FRT cells, expressing CFTR and YFP-H148Q/I152L | rescue 24 h at 27 °C | 90 nM |
| COc1ccc(NC(=O)CN2CCCN(S(=O)(=O)c3ccc(C(C)=O)cc3)CC2)c(OC)c1 | GRM4 | calcium mobilization, positive allosteric modulator | CHO cells with Gqi5 | with: glutamate EC20 | > 10000 nM |

Some of these lines once more:
| SMILES | target | test | system | conditions | EC50 |
| --- | --- | --- | --- | --- | --- |
| O=C(Nc1ccc(F)c(F)c1)C12CC1/C(=N\O)c1ccccc1O2 (stereo not shown) | GRM4 | calcium mobilization, positive allosteric modulator | CHO hmGluR4/Gqi5 | with: glutamate EC20 | > 5000 nM |
| Cc1nc(-c2ccc(OCC(C)C)c(C#N)c2)sc1C(N)=O | Grm2/Grm4 (Rattus norvegicus, UniProt P31421+P31423) | thallium flux, positive allosteric modulator | HEK293 GIRK | with: glutamate EC20 | 2200 nM |
| COc1ccccc1-c1cc(C(F)(F)F)nc(S(=O)(=O)CCCC(=O)O)n1 | GLP1R | cAMP accumulation, agonist | HEK293T overexpressing target | no peptide ligand | 39000 ± 8300 nM |
| NCCCCNC(=O)[C@H](Cc1c[nH]cn1)NC(=O)N1CCc2ccccc2C1 | Melanocortin receptor 3 | reporter gene, agonist, β-galactosidase reporter | HEK293 stably expressing Melanocortin receptor 3 |  | > 100000 nM |
| NCC(c1ccc(O)cc1)c1ccc(Oc2ccccc2)cc1 (stereo not shown) | Taar1 Y287N | cAMP, agonist |  | mouse receptor mutant | 176 ± 32 nM |
| Nc1nc(CCCc2ccc(Cl)cc2)nn1S(=O)(=O)c1ccc2ccccc2c1 | Lysophospholipase-like protein 1 | enzyme activity, activator, gel-based ABPP, FP-rhodamine | purified protein |  | > 20000 nM |
